Results of several laboratories.
Protocols differ between the studies behind these lines. Values joined by “and” are separate records of one study, mostly repeats; a detail may differ. ± gives the spread as reported.

C=CC(=O)Nc1cc(Nc2nccc(-c3cn(C)c4ccccc34)n2)c(OC)cc1N(C)CCN(C)C  recovery (storage stability; human plasma; 2 h, on ice, LLOQ level): 104%
CC(=O)Oc1ccccc1C(=O)O  mean blood pressure (male Hartley guinea pigs, anaesthetized; intravenous, 1 mg/kg over 10 min, after infusion): 36 ± 0.1 mmHg
C[C@@H]1O[C@@H](O[C@H]2[C@H](Oc3cc(O)c4c(c3)O[C@H](c3ccc(O)cc3)CC4=O)O[C@H](CO)[C@@H](O)[C@@H]2O)[C@H](O)[C@H](O)[C@H]1O  Papp (PBS receiver; 50 mg/mL, 120 min, pH 6.8): 0.557 ± 0.8 ×10⁻⁶ cm/s
N[C@@H](C[18F])C(=O)O  maximum bone uptake (PET; athymic nude mouse; intravenous, 90 min): ~26%
CC1(C)S[C@@H]2[C@H](NC(=O)[C@H](N)c3ccc(O)cc3)C(=O)N2[C@H]1C(=O)O  mean blood pressure (male Hartley guinea pigs, anaesthetized; intravenous, 3 mg/kg over 10 min, after infusion): 39 ± 0.2 mmHg
CCOc1c([C@H](C)n2nc(C)c3c(N)ncnc32)cc(Cl)c(F)c1[C@@H]1CNC(=O)C1  observations QTcF >450 ≤480 ms (ECG; previously treated B-cell malignancy patients; oral, 30 mg once daily, baseline QTcF ≤450 ms): 1.7%
CCCCC[C@H](O)CC[C@@H]1[C@H]2Cc3cccc(OCC(=O)O)c3C[C@H]2C[C@H]1O  geometric mean AUC(0-last) (LC-MS/MS; Japanese CTD-associated PAH patients, plasma; inhaled, 54 µg): 0.58 ng·h/mL
COC(=O)Nc1cc(C(=O)Nc2ccccc2)cc2ccc(C(=N)N)cc12  pKa: 10.8
CCN1CCN(Cc2ccc(NC(=O)c3ccc(C)c(NC(=O)c4cncc(-c5cccs5)c4)c3)cc2C(F)(F)F)CC1  mean plasma concentration (LC-MS/MS; C57BL/6 mouse, plasma; intraperitoneal, 15 mg/kg single dose, 4 h): 144 ng/mL
CC(C)n1nc(-c2ccc3oc(N)nc3c2)c2c(N)ncnc21  AUC(0-last) (human, plasma; oral, 3 mg once daily, cycle 1 day 15): 253 ng·h/mL
CN(C)C(=N)N=C(N)N  subjects with adverse event (refers to: toothache; healthy men; oral, dose not given, 8 days, treatment-emergent, crossover trial): 0%
FC(F)(F)c1ccc(CNc2ccc(Cc3c[nH]c4ncc(Cl)cc34)cn2)cn1  treatment-related adverse events (refers to: Dysgeusia; patients with advanced solid tumours, non-TGCT cohort; oral, 1000 mg/day, any grade): 12%
O=C(Nc1nc2cccc(-c3ccc(CN4CCS(=O)(=O)CC4)cc3)n2n1)C1CC1  treatment-emergent adverse events (refers to: aspartate aminotransferase increased; human rheumatoid arthritis patients; oral, 75 mg once daily, 4 weeks, regardless of relatedness): 0%
O=C(O)CCC(=O)O.[2H]C([2H])([2H])Oc1cc(C)c2[nH]ccc2c1CN1CC[C@@H](C2CC2)C[C@H]1c1ccc(C(=O)O)cc1  subjects with hyperuricaemia (multiple ascending dose; healthy Chinese subjects; 100 mg twice daily): 0%
Nc1ncnc2c1ncn2[C@H]1C[C@@H]2OP(=O)(O)OC[C@H]3O[C@@H](n4cnc5c(N)ncnc54)C[C@@H]3OP(=O)(O)OC[C@H]2O1  globulin (non-tumor-bearing mice, serum; intravenous, 1 mg/kg, toxicity study): 21.9 ± 1.08 g/L
COc1ccc2c(c1)CN(C(=O)CCN1CCC(Cc3ccccc3)CC1)CC[S@@+]2[O-]  diastolic blood pressure (telemetry; conscious dog; intravenous, 8 mg/kg, 2 h): 83 ± 17 mmHg
Cc1cc(-c2nnc(N)nc2-c2ccc(F)cc2)cc(Cl)n1  incidence of treatment-related AE (refers to: decreased appetite, any grade; post-IO patients with other tumours; oral, 100 mg once daily): 23.8%
N#Cc1ccc2c(c1)[C@H]1CCCN(C(=O)c3ccc4[nH]cnc4c3)[C@H]1C2  androstenedione level (human, female; 160 mg, day 15): 10.5 nmol/L
COc1nc(-c2cc(C)c(N[C@@H](C)c3cc(F)cc(F)c3)nn2)ccc1-n1cnc(C)c1  concentration (rat Sprague-Dawley male, brain; oral, 5 mg/kg daily for 9 days, 4 h after dose): 550 ng/g
CCC(C)n1ncn(-c2ccc(N3CCN(c4ccc(OCC5COC(Cn6cncn6)(c6ccc(Cl)cc6Cl)O5)cc4)CC3)cc2)c1=O (stereo not drawn)  trough plasma concentration (human, plasma; oral, dose not given, day 15 predose, median): 139 ng/mL
OCCOCc1ccc(-c2noc(-c3ccc(OCC[18F])c(C(F)(F)F)c3)n2)cc1  gallbladder absorbed dose (human, extrapolated from Macaca mulatta; 115 MBq, single injection): 47.8 mSv
C=CCn1c(=O)c2cnc(Nc3ccc(N4CCN(C)CC4)cc3)nc2n1-c1cccc(C(C)(C)O)n1  AUC(0-10) (human; oral, 250 mg once daily, monotherapy lead-in, -5 days; geometric mean): 6.8 µM·h
N=C(N)NCCNC(=O)C1(Nc2ccccc2)CCN(Cc2ccccc2)CC1  C0 (Sprague-Dawley rats (female), plasma; intravenous, 2.5 mg/kg): 9060 ± 1000 ng/mL
COc1ncc(-c2nc3c(n2C(C)C)[C@H](c2ccc(Cl)cc2)N(c2cc(Cl)cn(C)c2=O)C3=O)c(OC)n1  median Tmax (human patients, plasma; oral, 25 mg, low-dose arm, cycle 2 day 1): 2.5 h
CCN1/C(=C/C(C)=O)Sc2ccc(F)cc21  QTc interval (Bazett) (cynomolgus monkey; oral, 10 mg/kg, 2 h post-dose): 326 ± 15 ms
CNCc1ccc(-c2[nH]c3cc(F)cc4c3c2CCNC4=O)cc1  incidence of pulmonary embolism (human patients; oral, dose not given, all grades, all doses): 0%
Cc1ccc(Sc2ccccc2N2CCNCC2)c(C)c1  participants with TEAE (refers to: Nausea; healthy adult women; oral, 10 mg daily, 12 days): 16.7%
O=C(N[C@H](Cc1c[nH]c2ccccc12)C(=O)Nc1ccncc1)c1ccc(-c2ccc(F)c(Cl)c2)cc1F  concentration (Swiss Webster mouse, female, brain; oral, 50 mg/kg, 2 h, 20% HPβCD vehicle): 230 nM
CC(C)(C(=O)N1CCOc2c(C#N)cncc2C1)C(F)F  subjects with adverse event (refers to: Headache; human; oral, 15 mg twice daily, 14 days, multiple ascending dose): 12.5%
COc1cc(N)c(Cl)cc1C(=O)NC1CCN(CCCOc2ccc(F)cc2)CC1OC (stereo not drawn)  mean blood pressure (male Hartley guinea pigs, anaesthetized; intravenous, 1 mg/kg group, baseline before infusion): 39 ± 0.4 mmHg
COc1cc2c(Nc3ccc(Cl)c(Cl)c3F)ncnc2cc1OC[C@@H]1C[C@@H]2CN(C)C[C@@H]2C1  unbound brain concentration (FVB Mdr1a/b(-/-)Bcrp1(-/-) triple knockout mice, both sexes, brain; intraperitoneal infusion (osmotic pump), dose not given, 48 h): 33.1 ng/mL
O=C(O)CNC(=O)c1ncccc1O  pKa (acidic): 3.2
CCN(Cc1ccc(F)cc1)c1ccc(CO)c(Cl)c1  bile ducts per triad (F344 rat, male, liver; oral, 100 mg/kg/day, 2 days): 8.5 and 8.3 and 6.5
Cc1c(Br)cc(NC(=O)C(c2ccccc2)S(=O)(=O)O)cc1Br (stereo not drawn)  C0 (CD-1 mice, whole blood; intravenous, 2 mg/kg): 4940 nM
COc1cc2c3c(n(CCCN4CCOCC4)c(=O)c2cc1OC)-c1cc2c(cc1C3=O)OCO2  CL (beagle dog, female, plasma; intravenous infusion, 646 mg/m^2, 1 h infusion): 15 L/h/m² and 21.8 L/h/m²
C[C@H](CS)C(=O)N1CCC[C@H]1C(=O)O  mean blood pressure (male Hartley guinea pigs, anaesthetized; intravenous, 30 mg/kg over 10 min, after infusion): 22 ± 0.2 mmHg
CCO[C@H]1CCN(Cc2c(OC)cc(C)c3[nH]ccc23)[C@H](c2ccc(C(=O)O)cc2)C1  unbound Cmax (human mild hepatic impairment, plasma; oral, 200 mg single dose, median): 922 ng/mL
COc1cc2[nH]c(C)c(-c3cccnc3)c(=O)c2cc1Cl  Papp (PAMPA; pH 7.4): 10 ×10⁻⁶ cm/s
CCn1c(C(=O)N(C2CC2)C2CC2)cc2c3c(ncn3C)c(Nc3cc(C)n(C)n3)nc21  plasma concentration (cancer patients; oral, 200 mg single dose, day 1, 3.0 h): 1850 ng/mL
CCC(=O)N(CCC(c1ccc2c(c1)OCO2)c1ccccc1OC)Cc1ccccc1 (stereo not drawn)  AST (female athymic nude mouse, blood; i.p., 60 mg/kg twice daily, 14 days, group mean): 77.5 U/L
Cc1ccc(C(=O)Nc2ccnc(S(N)(=O)=O)c2)c(N2CCCC(F)(F)CC2)n1  unbound plasma concentration (rhesus monkey, plasma; intravenous, dose not given, 90 min): 189 ± 26.6 nM
CN1C(=O)[C@@H](NC(=O)c2nnc(Cc3ccccc3)[nH]2)COc2cccnc21  nasopharyngitis incidence (phase I multiple ascending dose; human, male and female; oral, 200 mg, 14 days): 0%
C[C@@H](Nc1cc(F)cc(F)c1)c1cc(C(=O)N(C)C)cc2c(=O)cc(N3CCOCC3)oc12  AUC(0-12 h) (refers to: M1 metabolite; human; oral, 120 mg, single dose day 1, 5:2 BID regimen): 3550 ng·h/mL
CSc1nc2nnnc(O)c2s1  maximum haemolysis (sheep erythrocytes; 1 h, pH 7.5): 6.01%
Cc1cc(-c2nccc3c2ccn3CC(=O)Nc2ccc(-c3cnccn3)cn2)ccn1  subjects with Cough adverse event (human; 5 mg once daily, multiple ascending dose): 0%
COCCOc1cnc2ccn([C@H](C)c3nnc4c(F)cc(-c5cnn(C)c5)cn34)c(=O)c2c1  Ctrough (patients, plasma; oral, 100 mg once daily, day 1 24 h postdose): 120 ng/mL
CN1C(C(=O)Nc2cccc(F)n2)=C(O)c2ccccc2S1(=O)=O  pKa (acidic): 3.6
O=C(O)c1cc(O)c(O)c(O)c1  C0 (chicken Ross broiler, male, serum; intravenous, 0.49 mg/kg): 11400 ± 3940 nM
C[C@@H]1COCCN1c1cc(C2([S@](C)(=N)=O)CC2)nc(-c2cc[nH]c3nccc2-3)n1  Anemia incidence (Japanese advanced solid tumour patients; oral, 240 mg twice daily, any grade): 50%
Cc1c(-c2ccc(N3CCc4cccc(C(=O)Nc5nc6ccccc6s5)c4C3)nc2C(=O)O)cnn1CC12CC3(C)CC(C)(C1)CC(OCCNCC[C@H](O)CO)(C3)C2  plasma concentration (anaesthetized male beagle dog; iv infusion, 0.3 mg/kg/min, 90 min): 0.4 ng/mL and 2.49 ng/mL
CNC(=O)c1ccc(-c2cnc3ncc(Cc4ccc5ncccc5c4)n3n2)cc1F  patients with adverse event (refers to: Pruritus; hepatocellular carcinoma patients; oral, 600 mg twice daily, expansion cohort, grade 3-4): 0%
C=CCN1CC(=O)N2[C@@H](Cc3ccc(O)cc3F)C(=O)N(Cc3cccc(N4CC(N5CCN(CC)CC5)C4)n3)C[C@@H]2N1C(=O)NCc1ccccc1  treatment-related decreased appetite (advanced solid tumour patients; oral, 120 mg twice daily, any grade, dose-escalation): 25%
O=C(Nc1cnccc1Cl)N1CCN(Cc2ccc3c(c2)OC(F)(F)O3)CC1  AUC(0-tau) (healthy young women, plasma; oral, 100 mg once daily, day 10, dosing interval 24 h): 6970 ng·h/mL
Cc1cc(Nc2cc3ncccc3c(N[C@@H]3C[C@H]4CC[C@@H](C3)N4CCC#N)n2)n[nH]1  papular rash incidence (healthy human subjects; oral, 10 mg, 2 weeks, single ascending dose): 0%
Cc1ccc([C@@H]2O[C@H](CO)[C@@H](O)[C@H](O)[C@H]2O)cc1Cc1ccc(-c2ccc(F)cc2)s1  urinary calcium excretion change (Japanese type 2 diabetes patients; 200 mg, day 2, 24 h urine collection; baseline: baseline): -33.6 mg
CCc1cc(C(=O)NC)c2nccc(N3CCc4c(cc(Cn5ccnc5)cc4-c4cn(C)nc4C(F)(F)F)C3=O)c2c1  blood HGB change (Sprague Dawley rats; oral, 100 mg/kg twice daily, 7 days; baseline: vehicle): -0.56%
CC[C@H](C)[C@H](NC(=O)CN)C(=O)N[C@@H](CC(C)C)C(=O)N[C@@H](CC(=O)O)C(=O)N[C@@H](C)C(=O)N[C@H](C(=O)N[C@@H](CCCCN)C(=O)N[C@@H](C)C(=O)N[C@H](C(=O)N[C@@H](C)C(N)=O)[C@@H](C)CC)[C@@H](C)CC  mean residue ellipticity (circular dichroism at 222 nm; 30% TFE; 100 µM): -4520 deg cm2/dmol

For quick reference, copied from above:
Cc1cc(-c2nnc(N)nc2-c2ccc(F)cc2)cc(Cl)n1  incidence of treatment-related AE (refers to: decreased appetite, any grade; post-IO patients with other tumours; oral, 100 mg once daily): 23.8%
N#Cc1ccc2c(c1)[C@H]1CCCN(C(=O)c3ccc4[nH]cnc4c3)[C@H]1C2  androstenedione level (human, female; 160 mg, day 15): 10.5 nmol/L
COc1nc(-c2cc(C)c(N[C@@H](C)c3cc(F)cc(F)c3)nn2)ccc1-n1cnc(C)c1  concentration (rat Sprague-Dawley male, brain; oral, 5 mg/kg daily for 9 days, 4 h after dose): 550 ng/g
CCC(C)n1ncn(-c2ccc(N3CCN(c4ccc(OCC5COC(Cn6cncn6)(c6ccc(Cl)cc6Cl)O5)cc4)CC3)cc2)c1=O (stereo not drawn)  trough plasma concentration (human, plasma; oral, dose not given, day 15 predose, median): 139 ng/mL
OCCOCc1ccc(-c2noc(-c3ccc(OCC[18F])c(C(F)(F)F)c3)n2)cc1  gallbladder absorbed dose (human, extrapolated from Macaca mulatta; 115 MBq, single injection): 47.8 mSv
